Published values collected from several papers.
Each line is one published result; not all experiments were run side by side.

CC[C@H](C)[C@H](NC(=O)[C@H](Cc1ccccc1)NC(=O)[C@H](CCC(=O)O)NC(=O)[C@H](CCCCNC(=O)COCCOCCNC(=O)COCCOCCNC(=O)CC[C@H](NC(=O)CCCCCCCCCCCCCCCCC(=O)O)C(=O)O)NC(=O)[C@H](C)NC(=O)[C@H](C)NC(=O)[C@H](CCC(N)=O)NC(=O)CNC(=O)[C@H](CCC(=O)O)NC(=O)[C@H](CC(C)C)NC(=O)[C@H](Cc1ccc(O)cc1)NC(=O)[C@H](CO)NC(=O)[C@H](CO)NC(=O)[C@@H](NC(=O)[C@H](CC(=O)O)NC(=O)[C@H](CO)NC(=O)[C@@H](NC(=O)[C@H](Cc1ccccc1)NC(=O)[C@@H](NC(=O)CNC(=O)[C@H](CCC(=O)O)NC(=O)C(C)(C)NC(=O)[C@@H](N)Cc1cnc[nH]1)[C@@H](C)O)[C@@H](C)O)C(C)C)C(=O)N[C@@H](C)C(=O)N[C@@H](Cc1c[nH]c2ccccc12)C(=O)N[C@@H](CC(C)C)C(=O)N[C@H](C(=O)N[C@@H](CCCNC(=N)N)C(=O)NCC(=O)N[C@@H](CCCNC(=N)N)C(=O)NCC(=O)O)C(C)C — result for “subjects with adverse events”: 0% (healthy humans; subcutaneous, 0.25 to 1.5 mg weekly, escalated, 16 weeks, Severe severity).
For CC(=O)N(C)[C@H]1CCN(C(=O)c2cnc3c(c2)C[C@](C)(c2ccc(F)cc2)N3)C1, “subjects with AESIs” read 4.2% (healthy male human; oral, dose not given, all doses pooled).
CC(C)(C(=O)N1CCOc2c(C#N)cncc2C1)C(F)F: “subjects with adverse event” 0% (item: Restlessness; human; oral, 15 mg twice daily, 14 days, multiple ascending dose).
CN1C(=O)[C@@H](NC(=O)c2nnc(Cc3ccccc3)[nH]2)COc2cccnc21 — result for “subjects with headache”: 0% (human, fasted; oral, 200 mg single dose).
Under “subjects with adverse event”, CN(C)C(=N)N=C(N)N is recorded as 4.2% (item: Nausea; healthy human; oral, dose not given).
Cc1cc(-c2nccc3c2ccn3CC(=O)Nc2ccc(-c3cnccn3)cn2)ccn1 — result for “subjects with ventricular tachycardia”: 0% (human; 20 mg once daily, multiple ascending dose).
Under “subjects with muscle spasms”, C=C(C)[C@@H]1CC[C@]2(NCCN3CCS(=O)(=O)CC3)CC[C@]3(C)[C@H](CC[C@@H]4[C@@]5(C)CC=C(C6=CC[C@@](CF)(C(=O)O)CC6)C(C)(C)[C@@H]5CC[C@]43C)[C@@H]12 is recorded as 0% (healthy human volunteers; oral, 500 mg, 7 days).
C[C@@H](N)c1cc(Cl)ccc1Cn1c(=S)[nH]c(=O)c2[nH]ccc21: “subjects with nausea” 5% (human; oral, 2.5 mg single dose).
Under “subjects with abdominal discomfort”, COC(=O)N[C@H](C(=O)N1CCC[C@H]1c1ncc(-c2cc(F)c3c(c2)O[C@@H](c2cnc(C4CC4)s2)n2c-3cc3cc(-c4cnc([C@@H]5CCCN5C(=O)[C@@H](NC(=O)OC)C(C)C)[nH]4)ccc32)[nH]1)C(C)C is recorded as 0% (healthy adult human; oral, 180 mg, 6 days, compound alone).
O=C(COc1ccc(Cl)cc1)NC12CC(c3nnc([C@H]4C[C@@H](OC(F)(F)F)C4)o3)(C1)C2: “subjects with any TEAE” 91.2% (humans, MAD; oral, dose not given, 14 days, all compound doses).

Excerpt of the above:
C[C@@H](N)c1cc(Cl)ccc1Cn1c(=S)[nH]c(=O)c2[nH]ccc21: “subjects with nausea” 5% (human; oral, 2.5 mg single dose).
Under “subjects with abdominal discomfort”, COC(=O)N[C@H](C(=O)N1CCC[C@H]1c1ncc(-c2cc(F)c3c(c2)O[C@@H](c2cnc(C4CC4)s2)n2c-3cc3cc(-c4cnc([C@@H]5CCCN5C(=O)[C@@H](NC(=O)OC)C(C)C)[nH]4)ccc32)[nH]1)C(C)C is recorded as 0% (healthy adult human; oral, 180 mg, 6 days, compound alone).
